Experimental data of several laboratories.
Parts stem from different laboratories: compare values within a part only.
Chain of UniProt P37173 (whole entry, looked up): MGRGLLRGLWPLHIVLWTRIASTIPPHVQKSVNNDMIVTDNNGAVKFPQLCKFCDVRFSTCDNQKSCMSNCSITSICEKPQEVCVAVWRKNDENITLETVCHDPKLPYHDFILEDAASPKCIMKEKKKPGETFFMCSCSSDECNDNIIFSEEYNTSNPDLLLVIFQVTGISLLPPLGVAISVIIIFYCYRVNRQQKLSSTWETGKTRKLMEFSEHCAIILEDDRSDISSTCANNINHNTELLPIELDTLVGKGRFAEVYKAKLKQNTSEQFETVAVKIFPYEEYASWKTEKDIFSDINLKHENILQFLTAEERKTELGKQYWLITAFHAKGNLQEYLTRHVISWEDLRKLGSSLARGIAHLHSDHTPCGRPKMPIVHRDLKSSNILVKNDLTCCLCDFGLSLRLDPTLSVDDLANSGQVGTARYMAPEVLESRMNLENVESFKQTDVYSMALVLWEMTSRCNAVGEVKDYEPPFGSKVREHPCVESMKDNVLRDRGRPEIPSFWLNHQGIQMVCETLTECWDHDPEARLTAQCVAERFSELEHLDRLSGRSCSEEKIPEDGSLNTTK

Series 1 — method: RNA Bind-n-Seq; form: RNA; matrix: in vitro; concentration: 20 nM; setting: 6-mer, flanks averaged, single round; with: 150 mM LiCl; baseline: input library; reading: higher = stronger binding; quantity: 6-mer enrichment (R)
Target: TAR DNA-binding protein 43, full length, His tag (TARDBP, Homo sapiens, UniProt Q13148, residues 1-414)
Oligonucleotide = CUUUUA; result = 1.12
Oligonucleotide = CUACUA; result = 0.849
Oligonucleotide = UUGCCG; result = 0.949
Oligonucleotide = UCCGAU; result = 0.824
Oligonucleotide = ACUCUA; result = 0.852
Oligonucleotide = AAGGCC; result = 0.894
Oligonucleotide = GGCCCG; result = 1.05
Oligonucleotide = AUCUGC; result = 0.851

Series 2 — method: protein-binding microarray; form: double-stranded DNA, one strand shown; matrix: in vitro; concentration: 250 nM; setting: 60-bp whole probe; with: salmon DNA 0.4 mg/ml; baseline: random background probes; reading: higher = stronger binding; quantity: log fluorescence; constant ends, left off below: GCCTAGCAC … GTCTTGATTCGCTTGACGCTGCTG
Target: Interferon regulatory factor 5, full length, phosphomimetic (IRF5, Homo sapiens, UniProt Q13568-2, residues 1-514, K96S/S451D/S453D/S456D/S462D)
Oligonucleotide = GACGGACTGCCACTGCTGACGTGCTAG; result = -0.715 z-score
Oligonucleotide = GAAGGACTGCTTATCCTGACGTGCTAG; result = -0.18 z-score
Oligonucleotide = GACGAACGGGGGTTTCGAGACGTGCTA; result = 2.08 z-score
Oligonucleotide = TCTTTTTGCTTTCTTTATGCGTGCTAG; result = 2.84 z-score
Oligonucleotide = GACGCACTGCTTATCCTGACGTGCTAG; result = -0.232 z-score
Oligonucleotide = TCATCGTAAGCAAAAATACTGTGCTAG; result = 0.643 z-score
Oligonucleotide = TCATTTTTCTCCTATTTAACTGTGCTA; result = 2.19 z-score
Oligonucleotide = TTAGGACTGGACTATCGGCTAGTGCTA; result = 1.76 z-score

Series 3 — method: protein binding microarray; form: double-stranded DNA, one strand shown; matrix: in vitro; concentration: not given; baseline: not given; reading: higher = stronger binding; quantity: E-score
Target: Histone acetyltransferase KAT6A, winged helix 2, GST fusion (KAT6A, Homo sapiens, UniProt Q92794, residues 85-181)
Setting: 8-mer, flanks averaged, mean of 2 arrays, mostly near background
Target sequence (chain): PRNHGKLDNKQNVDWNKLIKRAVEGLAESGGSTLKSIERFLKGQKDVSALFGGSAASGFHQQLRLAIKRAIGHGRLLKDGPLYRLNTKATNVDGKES
Oligonucleotide = AGCCGATC; result = 0.149
Oligonucleotide = CACGCTAC; result = -0.0701
Oligonucleotide = AGTCCAGC; result = 0.0263
Oligonucleotide = CGAGTTTC; result = 0.0447
Oligonucleotide = AAATTATT; result = 0.0666
Oligonucleotide = ATCCACGC; result = -0.0894
Oligonucleotide = CAACCACG; result = -0.142
Oligonucleotide = GTCCTAGA; result = -0.0547

Other studies, line by line
Structure (SMILES) = CC(=O)O/N=C1/C(c2c(O)[nH]c3cc(Br)ccc23)=Nc2ccccc21; target = TGF-beta receptor type-2 (TGFBR2, Homo sapiens, UniProt P37173); observed = enzyme activity; action = inhibitor; concentration = 0.5 µM; baseline = control; quantity = remaining activity; result = 132%

For quick reference, copied from above (series 2):
Oligonucleotide = TCATTTTTCTCCTATTTAACTGTGCTA; result = 2.19 z-score
Oligonucleotide = TTAGGACTGGACTATCGGCTAGTGCTA; result = 1.76 z-score
Oligonucleotide = TCTTTTTGCTTTCTTTATGCGTGCTAG; result = 2.84 z-score
